{"data": "Experimental data of several laboratories", "TDP1": "Tyrosyl-DNA phosphodiesterase 1 (TDP1, Homo sapiens, UniProt Q9NUW8)", "PRKG2": "cGMP-dependent protein kinase 2 (PRKG2, Homo sapiens, UniProt Q13237)", "chain of UniProt Q9NUW8 (whole entry, looked up)": "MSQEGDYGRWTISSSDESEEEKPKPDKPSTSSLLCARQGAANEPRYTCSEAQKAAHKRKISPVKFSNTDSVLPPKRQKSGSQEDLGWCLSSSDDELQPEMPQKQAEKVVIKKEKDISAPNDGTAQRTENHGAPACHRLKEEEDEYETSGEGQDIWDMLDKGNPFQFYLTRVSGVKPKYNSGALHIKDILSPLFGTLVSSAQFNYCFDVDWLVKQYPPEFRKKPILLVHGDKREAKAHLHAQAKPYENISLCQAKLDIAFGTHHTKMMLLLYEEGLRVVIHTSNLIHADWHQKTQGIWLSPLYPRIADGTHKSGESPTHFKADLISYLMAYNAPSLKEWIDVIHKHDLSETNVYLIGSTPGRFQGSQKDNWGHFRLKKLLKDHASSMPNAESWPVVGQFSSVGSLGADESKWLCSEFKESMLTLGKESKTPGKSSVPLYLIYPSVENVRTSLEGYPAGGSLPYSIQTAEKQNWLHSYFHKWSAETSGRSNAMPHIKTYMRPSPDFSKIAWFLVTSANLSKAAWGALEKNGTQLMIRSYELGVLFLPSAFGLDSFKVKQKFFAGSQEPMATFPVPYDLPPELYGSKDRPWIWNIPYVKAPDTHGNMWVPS"}
{"Compound": "O=C(O)c1ccc(Nc2c(-c3ccc(CON=Cc4c(O)ccc5cc([N+](=O)[O-])ccc45)cc3)nc3cc(-c4ccccc4)ccn23)cc1", "target": "TDP1", "test": "enzyme activity, inhibitor", "conditions": "100 µM", "measurement": "inhibition", "value": "29.9%"}
{"Compound": "C=CC(=O)N1CCc2ccc(-n3c(=O)ccc4cnc5ccc(-c6cnn(C)c6)cc5c43)cc21", "target": "PRKG2", "test": "KINOMEscan", "conditions": "1 µM", "scale": "relative to: DMSO control", "measurement": "remaining binding", "value": "87%"}
{"Compound": "NC(=O)C[C@H]1CCc2sc3ncnc(O[C@H]4CC[C@H](N5CCOCC5)CC4)c3c21", "target": "PRKG2", "test": "enzyme activity, inhibitor", "conditions": "10 µM", "measurement": "inhibition", "value": "3%"}
{"Compound": "CCN1CCN(Cc2ccc(C(=O)Nc3ccc(C)c(NCc4cnc5[nH]ccc5c4OC)c3)cc2C(F)(F)F)CC1", "target": "PRKG2", "test": "binding, competition with immobilised ligand", "conditions": "1 µM", "measurement": "remaining binding", "value": "100%"}
{"Compound": "O=C(Cc1ccc(OCc2ccccc2)cc1)NC1(C(=O)O)CCN(C(=O)c2ccc(-c3cccc(Cl)c3)cc2)CC1", "target": "PRKG2", "test": "enzyme activity, inhibitor", "conditions": "10 µM", "measurement": "activity vs control", "value": "98%"}
{"Compound": "CCSc1c(C=NOCc2ccc(-c3nc4cc(-c5ccccc5)ccn4c3Nc3ccc(C(=O)O)cc3)cc2)c2ccccc2n1C", "target": "TDP1", "test": "enzyme activity, inhibitor", "conditions": "100 µM, unpurified compound", "measurement": "inhibition", "value": "17.3%"}
{"Compound": "C=CC(=O)Nc1cccc(-c2cnc3[nH]cc(C(=O)NC(C)(C)C)c3n2)c1", "target": "PRKG2", "test": "enzyme activity, inhibitor", "conditions": "0.1 µM", "measurement": "inhibition", "value": "1%"}
{"Compound": "Cc1c[nH]c2nccc(-c3ccc(C(=O)N[C@@H]4c5c(F)cc(C(F)F)cc5C[C@@H]4O)cn3)c12", "target": "PRKG2", "test": "binding, competition with immobilised ligand", "conditions": "3 µM", "measurement": "remaining binding", "value": "18%"}
{"Compound": "COc1c(Cl)cccc1Nc1c(-c2ccncc2C#C[C@@]2(C)CCCN2C(=O)/C=C/CN(C)C)[nH]c2c1C(=O)NCC2", "target": "PRKG2", "test": "binding, competition with immobilised ligand", "conditions": "3 µM", "measurement": "remaining binding", "value": "98%"}
{"Compound": "CNC(=O)C[C@H](Cc1ccc(C#N)cc1)NC(=O)c1cc(-c2ccc(CN[C@H](C)c3ccc(C)cc3)o2)ccc1Cl", "target": "PRKG2", "test": "enzyme activity, inhibitor", "conditions": "1 µM", "measurement": "activity vs control", "value": "99%"}
{"Compound": "CCn1cc(C(=O)O)c(=O)c2c(N)c(F)c(NC3CCCCC3)cc21", "target": "PRKG2", "test": "kinase activity", "conditions": "0.1 µM, together with: ATP at Km", "measurement": "inhibition", "value": "-6.2%"}
{"Compound": "C=CC(=O)N1CCCC(n2c(=O)c3ncccc3n(Cc3ccc(Oc4ccccc4)cc3)c2=O)C1 (stereo not drawn)", "target": "PRKG2", "test": "cell-free assay, competition with immobilised ligand", "conditions": "1 µM", "measurement": "remaining binding", "value": "95%"}
{"Compound": "C=CC(=O)N1Cc2nc(-c3cc(-c4cc(Cl)cnc4Cl)c(F)cc3F)n(-c3ccncn3)c2C1", "target": "PRKG2", "test": "cell-free assay, inhibitor", "conditions": "1 µM", "measurement": "inhibition", "value": "9.6%"}
{"Compound": "Nc1ncc(-c2cc(-c3cnn(CC(F)(F)F)c3)ncc2F)nc1C(=O)NC1CNCC(F)C1 (stereo not drawn)", "target": "PRKG2", "test": "enzyme activity", "conditions": "1 µM", "scale": "relative to: DMSO control", "measurement": "remaining activity", "value": "103%"}
{"Compound": "COc1cc(Nc2nc(C)cc(-c3cnn4nc(OC)ccc34)n2)cc(C(F)(F)F)c1", "target": "PRKG2", "test": "inhibitor", "conditions": "1 µM", "scale": "relative to: control", "measurement": "remaining activity", "value": "70%"}
{"note": "For quick reference, copied from above:"}
{"Compound": "C=CC(=O)N1CCc2ccc(-n3c(=O)ccc4cnc5ccc(-c6cnn(C)c6)cc5c43)cc21", "target": "PRKG2", "test": "KINOMEscan", "conditions": "1 µM", "scale": "relative to: DMSO control", "measurement": "remaining binding", "value": "87%"}
{"Compound": "NC(=O)C[C@H]1CCc2sc3ncnc(O[C@H]4CC[C@H](N5CCOCC5)CC4)c3c21", "target": "PRKG2", "test": "enzyme activity, inhibitor", "conditions": "10 µM", "measurement": "inhibition", "value": "3%"}
